Assay results gathered from unrelated publications.
Each numbered part is a random draw from the data of one study; scales do not carry over between parts.

Sample 1
Target: Prothrombin, mature alpha-thrombin (F2, Homo sapiens, UniProt P00734)
Technique: aptamer microarray, sandwich
Molecule type: DNA with 2'F-ANA
Matrix: in vitro
Tested at: 200 nM
Notes: whole 15-mer aptamer, many near background
With: Cy3 exosite-II aptamer, 400 nM
Reading: higher = stronger binding
Oligonucleotide: GGTTGGTGTGGTTGG
For `2'F-ANA at 5 12 13`, “mean fluorescence intensity” read 131 a.u.
For `2'F-ANA at 5 7 8 9 11 13 14`, “mean fluorescence intensity” read 52.7 a.u.
For `2'F-ANA at 1 5 7 8 9 11 13`, “mean fluorescence intensity” read 80.9 a.u.
`2'F-ANA at 2 4 5 6 9 10 11 12 15`: “mean fluorescence intensity” 149 a.u.
Under “mean fluorescence intensity”, `2'F-ANA at 4 5 6 8 11 13 15` is recorded as 52.2 a.u.
`2'F-ANA at 2 3 8 9`: “mean fluorescence intensity” 870 a.u.

Sample 2
Target: UBE2B UBC core domain (UniProt P63146)
Chain of UniProt P63146 (whole entry, looked up): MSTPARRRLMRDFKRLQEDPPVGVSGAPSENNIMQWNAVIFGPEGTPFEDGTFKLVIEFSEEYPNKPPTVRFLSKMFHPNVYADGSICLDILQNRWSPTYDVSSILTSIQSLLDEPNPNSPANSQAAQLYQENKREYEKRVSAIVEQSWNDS
Technique: yeast two-hybrid
Matrix: yeast
Notes: mostly zero background
Reference: not given
Reading: higher = stronger interaction
B1: RNF111 RING domain (UniProt Q6ZNA4); chain EGTEEDTEEKCTICLSILEEGEDVRRLPCMHLFHQVCVDQWLITNKKCPICRVDIEAQLPSE
B2: TRIM4 RING domain (UniProt Q9C037); chain EAEDIQEELTCPICLDYFQDPVSIECGHNFCRGCLHRNWAPGGGPFPCPECRHPSAPAALRP
Under “lacZ reporter activity”, `B1 (RNF111 RING domain)` is recorded as 0.
Under “lacZ reporter activity”, `FQGDVDEDLICPICSGVLEEPVQAPHCEHAFCNACITQWFSQQQTCPVDRSVVTVAHLRP (RNF41 RING domain (UniProt Q9H4P4))` is recorded as 0.
`QVDKAVFHMQSVKCLKCQEQKRAVLPCQHAALCELCAEGSECPICQPGRAHTLQS (UNK RING domain (UniProt Q9C0B0))` — result for “lacZ reporter activity”: 0.
Under “lacZ reporter activity”, `B2 (TRIM4 RING domain)` is recorded as 0.

Sample 3
Target: Interferon regulatory factor 5, full length, phosphomimetic (IRF5, Homo sapiens, UniProt Q13568-2, residues 1-514, K96S/S451D/S453D/S456D/S462D)
Technique: protein-binding microarray
Molecule type: double-stranded DNA, one strand shown
Matrix: in vitro
Tested at: 250 nM
Notes: 60-bp whole probe
With: salmon DNA 0.4 mg/ml
Reference: random background probes
Reading: higher = stronger binding
Shared flanks, not repeated: GCCTAGCAC … GTCTTGATTCGCTTGACGCTGCTG
`TCATTTTTCATCATTGCACTGTGCTAG` has a log fluorescence of 1.66 z-score.
`TCATACATGCATATAGTACTGTGCTAG` has a log fluorescence of 0.384 z-score.
With `TTATATTTCAGTTCCGATTAGTGCTAG` the log fluorescence was 3.31 z-score.
`TTAGATTGCAGTCTCGATTAGTGCTAG` has a log fluorescence of 0.801 z-score.
With `GAGGAGGGGCTGTTACTCTCGTGCTAG` the log fluorescence was -0.355 z-score.
For `TTAGCTCTCAGTATCGATTAGTGCTAG`, the log fluorescence was 6.58 z-score.
`AACGATATCGGGTATCGAGACGTGCTA` has a log fluorescence of 3.09 z-score.

Single results of other studies
Technique: cross-linking MS
Under interaction screen, `SNRPA1 (Homo sapiens, UniProt P09661)` is recorded as “cross-linked” (SF3A1 (Homo sapiens, UniProt Q15459); hits only).
`PSMG1 (Homo sapiens, UniProt O95456)` — result for interaction screen: “cross-linked” (PSMA1 (Homo sapiens, UniProt P25786); hits only).
`MCM2 (Homo sapiens, UniProt P49736)`: cross-linked residues “K896 to K213” (GGA1 (Homo sapiens, UniProt Q9UJY5); cell fractions; with: DSSO).

Some of these lines once more (sample 3):
`TTAGATTGCAGTCTCGATTAGTGCTAG` has a log fluorescence of 0.801 z-score.
With `TTATATTTCAGTTCCGATTAGTGCTAG` the log fluorescence was 3.31 z-score.
